# Measurements of several laboratories.
# Each line is one published result; not all experiments were run side by side. ± gives the spread as reported.
# Cell line: MCF7
SMILES,test,conditions,scale,quantity,value
FC(F)(F)C1(c2ccc(CN3CCN(C(c4ccccc4)c4ccc(Cl)cc4)CC3)cc2)CCC1 (stereo not drawn),,72 h,,EC50,15 µM
CC(Cc1ccc(Cl)cc1)=C(c1ccc(Cl)cc1)c1ccc(OCCN2CCCCCC2)cc1,cell growth or viability,10 µM,,inhibition,31.8%
CN1CCC2(CC1)C/C(=N\NC(=O)Nc1ccccc1)c1ccccc1O2,"PI staining, flow cytometry","concentration not given, %G2/M",,cell cycle distribution,10.4%
COc1cc([C@@H]2c3cc4c(cc3[C@@H](OCc3cc(-c5ccc(C#N)cc5)no3)[C@H]3COC(=O)C23)OCO4)cc(OC)c1OC (stereo partly drawn),Caspase-Glo 3/7,"20 µg/mL, 24 h",,caspase-3/7 activation,89.3%
CN1CCN(c2ccc(C(=O)/C=C/Nc3ccc(S(N)(=O)=O)cc3)cc2)CC1,PI flow cytometry,"IC50 concentration, 24 h",,cells in %G2/M phase,23.5%
OC(c1cccc(Cl)c1)c1c[nH]c2ncc(C(F)(F)F)cc12 (stereo not drawn),cell growth or viability,"10 µM, 72 h",,inhibition,14%
CC(=O)N[C@H](CCCNC(=N)N)C(=O)N[C@H](CCCCN)C(=O)N[C@H](Cc1ccc(O)cc1)C(=O)N[C@H](CS)C(N)=O,,"concentration not given, 24 h",,decrease in EdU-positive cells,~50%
O=C(CCc1nc2cc(Cl)ccc2[nH]c1=O)Nc1ccc(O)cc1,MTT,,baseline: WI-38 IC50 over MCF7 IC50,selectivity index,23.9
O=C1c2ccccc2C(=O)c2c1ccc1c2C(C(=O)Nc2ccc(Br)cc2)C(=O)C1c1ccccc1 (stereo not drawn),cell growth or viability,,,TGI,45.3 µM
O=C(NCCCNc1n[n+]([O-])c2ccccc2[n+]1[O-])C(F)(F)F,MTT,,baseline: IC50 normoxia over IC50 hypoxia,hypoxia cytotoxicity ratio,5.7
COc1cc2c(=O)c(-c3ccc4c(c3)OCO4)coc2c2c1OC(C)(C)C=C2,annexin V/PI flow cytometry,"20 µM, 48 h",,apoptotic cells,39.3%
CN(C)c1ccc(/C=C/c2cc(/C=C3\Sc4ccccc4N3CCCN3CCCC3)c3ccccc3[n+]2C)cc1,Western blot,"concentration not given, 36 h",,hTERT protein level,decreased
O=C1c2c(O)cc(O)cc2-c2c(-c3ccc(O)cc3)oc3cc(O)cc1c23,label-free MS proteomics,concentration not given,baseline: tanespimycin upregulated proteins,shared upregulated proteins,48%
CCCCCCCCCCCCCCCC(=O)N[C@H](Cc1ccc(O)cc1)C(=O)N[C@H](CC(C)C)C(=O)N[C@@H](C(=O)NCC(=O)N[C@H](CC(N)=O)C(=O)NCC(=O)N[C@H](CC(C)C)C(=O)N[C@H](CCCNC(=N)N)C(=O)N[C@H](CO)C(=O)N[C@H](CC(N)=O)C(=O)N[C@H](CC(N)=O)C(=O)N[C@H](CCCNC(=N)N)C(N)=O)C(C)C,,"48 h, 1% FBS",,TGI,0.5 ± 0.025 µM
NS(=O)(=O)c1ccc(/N=N/c2ccc(O)c(/C=N/c3nccs3)c2)cc1,MTT,72 h,baseline: MCF10A IC50 over MCF7 IC50,selectivity index,1.92
CC(Cc1ccc(Cl)cc1)=C(c1ccc(Cl)cc1)c1ccc(OCCN(C)C)cc1,cell growth or viability,10 µM,,inhibition,89%
NS(=O)(=O)c1ccc(/N=N/c2ccc(O)c(/C=N/CCc3c[nH]c4ccccc34)c2)cc1,MTT,72 h,baseline: MCF10A IC50 over MCF7 IC50,selectivity index,2.78
N=C(N)NCCC[C@H](NC(=O)[C@H](Cc1c[nH]c2ccccc12)NC(=O)[C@H](CCC(N)=O)NC(=O)[C@H](Cc1c[nH]c2ccccc12)NC(=O)[C@H](CCCNC(=N)N)NC(=O)[C@H](Cc1c[nH]c2ccccc12)NC(=O)[C@H](CCC(N)=O)NC(=O)[C@@H](N)Cc1c[nH]c2ccccc12)C(N)=O,,,baseline: fibroblast IC50 over MCF7 IC50,selectivity ratio,> 1.1

# Some of these lines once more:
SMILES,test,conditions,scale,quantity,value
CN1CCN(c2ccc(C(=O)/C=C/Nc3ccc(S(N)(=O)=O)cc3)cc2)CC1,PI flow cytometry,"IC50 concentration, 24 h",,cells in %G2/M phase,23.5%
OC(c1cccc(Cl)c1)c1c[nH]c2ncc(C(F)(F)F)cc12 (stereo not drawn),cell growth or viability,"10 µM, 72 h",,inhibition,14%
CC(=O)N[C@H](CCCNC(=N)N)C(=O)N[C@H](CCCCN)C(=O)N[C@H](Cc1ccc(O)cc1)C(=O)N[C@H](CS)C(N)=O,,"concentration not given, 24 h",,decrease in EdU-positive cells,~50%
